Measurements collected from several papers.
Numbered parts are unrelated; each lists some results of a single study.

Sample 1
Target: RING finger protein unkempt homolog, zinc fingers 1-6, GST-SBP tag (UNK, Homo sapiens, UniProt Q9C0B0, residues 30-357)
UniProt Q9C0B0, sequence (30-357, looked up): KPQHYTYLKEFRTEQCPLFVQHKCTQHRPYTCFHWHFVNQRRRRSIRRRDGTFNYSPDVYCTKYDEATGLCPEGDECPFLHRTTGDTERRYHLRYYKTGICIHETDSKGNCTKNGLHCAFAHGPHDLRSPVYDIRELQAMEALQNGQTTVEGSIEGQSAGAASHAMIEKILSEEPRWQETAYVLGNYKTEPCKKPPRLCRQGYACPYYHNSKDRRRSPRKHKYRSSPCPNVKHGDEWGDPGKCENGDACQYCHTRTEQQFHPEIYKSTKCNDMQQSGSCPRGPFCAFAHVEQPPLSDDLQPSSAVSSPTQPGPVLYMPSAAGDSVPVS
Method: RNA Bind-n-Seq
Molecule type: RNA
Sample: in vitro
Concentration: not given
Setting: RNA with constant flanks, human and mouse sites, ends assumed
Reference: input RNA pool
Direction: higher = stronger binding
Constant ends, left off below: GGGAGUUCUACAGUCCGACGAUC … CAACAGAGGAUUGAGCAUCA
`GAAGUUCUGCGCCAGAAGCUUUUUGCACUGCAAGCUGAAAUCCAUCGACUAAAGAAGGAAGAGCAGCAGCAGGAAGAAGAAGCAGCAGCUUUGGUCCAGCAUAAGCUGCCGCCUUAUGUU` gave a bound/input enrichment of 0.109 ratio.
`ACUUCUGUCUUCUCCUGUUUACCUGCAUCUUUGGAAUGCUUGACUGACACCAGUGAUUCCUGCUUCCUUCAGUUUGAGUCCUGUCCAAUGGAGGAGAGCUGGUUCAUCACUCCUCCCCCA` gave a bound/input enrichment of 0.14 ratio.
The bound/input enrichment of `AUGGCUCGCCUGGUGCUCGGUCUGGUGAGCUGCACCUUCUUUCUAGCAGUCAGCGGUCUGUAUUCUUCUAGUGAUGAUGUCAUCGAGUUGACGCCAUCAAAUUUCAACAGAGAAGUUAUU` is reported as 0.281 ratio.
For `AGAUUCAAACCUGUGGUACCAUGGCCUCAUGUUGAAGGAGUAGAAGUGGACUUAGAGUCUAUUAGAAGAAAAAACAAAGCCAAAAAUGAACAGGAGCGCCAUGCUGGAGGAGAUUCCCAG`, the bound/input enrichment was 4.89 ratio.
The bound/input enrichment of `ACAGAGGCUCGGGGCCGGGAUGGGGUAUGGAAACGGUUGGAGGAAUGGAUGUCUUGGGACAAUUUUGCAGAUUAUGUGUUGCUUAAAAUGUAAUGUAACUGACACAGAGCCCAGAAAGCU` is reported as 0.396 ratio.
`CAUGCACCUCUGGAGCAGCAACACAUUACCCACAAGGAGCCCCUGGUAGCAAAUGAUAUCCUGAACCAUCCCAACUUUGUGAAGAAGAACUUGUGUAACAGCUUCAGUGACCGGACAGUG` gave a bound/input enrichment of 0.302 ratio.
`CUAAGGUUCAAUGUUCAAGAGAAUGGGUUUUUAUCUUCAUUGCCUUAUUUAGGCUCUUGGUUAUGUAUGAUCCUGUCUGGUCAAGCUGCUGACAAUUUAAGGGCAAAAUGGAAUUUUUCA` gave a bound/input enrichment of 0.273 ratio.
The bound/input enrichment of `AAGGUGGAAGAACUCCUUUAAUGAAAGCUGCAAGAGCUGGUCAUGUUUGUACUGUUCAGUUCUUAAUUAGUAAAGGAGCGAAUGUGAAUAGAACCACAGCUAAUAAUGACCAUACUGUAC` is reported as 0.527 ratio.

Sample 2
Target: RNA binding protein fox-1 homolog 2, RRM domain, GST-SBP tag (RBFOX2, Homo sapiens, UniProt O43251-10, residues 100-194)
Method: RNA Bind-n-Seq
Molecule type: RNA
Sample: in vitro
Concentration: 365 nM
Setting: natural RNA segment, single round, ends assumed
Reference: no-protein control
Direction: higher = stronger binding
Constant ends, left off below: GGGAGUUCUACAGUCCGACGAUC … UGGAAUUCUCGGGUGCCAA
Target sequence (chain): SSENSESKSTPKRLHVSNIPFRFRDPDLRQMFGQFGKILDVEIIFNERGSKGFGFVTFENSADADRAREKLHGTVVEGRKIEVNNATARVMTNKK
`CUAAACCCUAAUGGGAUGAGGCUUUUCACCCCAGGCCAUGCUGGUGGUGAUUUUUUAGCCCCUAAAUAAAACACUGGACUAUUUCCUGUUUACUUCAUUGAUUGCAACUA` — result for “RBNS enrichment (R)”: 0.368.
`UGCACUGAACGCUCUGCUCAGACAGGCCUUUCAUGAAGAGAAGAGUGGGGGAGAGGAUGCAGGGGGGCCCACCCCCACCCCCACAGCUGCCACAGCAUCUCACACCCCAG`: “RBNS enrichment (R)” 1.01.
`GAUUUGUUGCCAUGUGCACUUUGGGAUUUUGUAAUUGUUAAAAGAAAAUAUUUCUUUUAUGAUUUUCUUCUCCCACUCCCUGUCCUCCAGUGUUCUGUUAAUAUUAUUUG` — result for “RBNS enrichment (R)”: 0.471.
`CAGUGUGUGUCUGCUGGUCAUGUGCUGGUGCCAGUUGGGGAGGAAUCAGCUGUCUCGGUGGAUUCUGAGACUCACUGUGGGGCGGGAAGAAGGGUCUUCACUCUGCCAUU`: “RBNS enrichment (R)” 0.305.
For `UCUCUUGAAGUUCUAGGAAGAGGCAAACUACAAACUACUAGGAUUCUGAUUUCAGAUGUAGUCAUUCCAGAACCUUCUCUUUAUGAGUUCACCUGCUAGUACAAUCUCCA`, “RBNS enrichment (R)” read 0.423.
`AAUUGAGACUGCAAGUGGGGGAGGUGGAGGGUCUGGGGGAGUCUGCCCCCAAUCCAGGAGUACCCCCCUUGCCACCAAGUCUCCUUUAUUGCCUGCCUCUGCUGUGAAUU` — result for “RBNS enrichment (R)”: 1.16.
`AAACUCAACUUCCUAACUGUGUUAACUUAAUUUUAUUAGAACACUACAGUUGAGUGAGAACGUGCAGAAGAUGUCAACAGAAGAGAAUGUUGUGCUAAGAUAAUGGCCUC` — result for “RBNS enrichment (R)”: 0.374.
`UUUAAUCCCAUACAUUCGAGUUAAGUUUAGUGUUGAUGUUCCAUCAUUCUGGACCUCCCAGGAGUUGUUUAAGAAUGAAUCUCUUACACCUCUACUUUUGCCCCUCUACU` — result for “RBNS enrichment (R)”: 0.318.
Under “RBNS enrichment (R)”, `ACUUUGAGAGAAUUUCCAAUAUAAUAUUAGACAUAAUGAUAAUUUUUUCCAUACUCAGAAUGAAAAACUGGAUAUUACGUUUUUGUUUUGGGGUUUUUUUGUACAAAUUU` is recorded as 1.58.
`GGCCUGAAAAUAUUUGUGAUCCAUAACUCUACACAGCCUUUACUCAUACUAUUAGGCACACUUUCCCCUUAGAGCCCCCUAAGUUUUUCCCAGACGAAUCUUUAUAAUUU`: “RBNS enrichment (R)” 0.62.
`UUAAACCUGAAGAUUUCCGCAGUCCGUGUAAGCAUGUUUACCCGUUGGCUCGCUUUCUGUGUCUGUUAAAUGAAUGUCAUAUGUAAAUGCUAAACUAAGUCAACAGUGUC` — result for “RBNS enrichment (R)”: 25.6.
For `GCAGGGAAGUGUUGUGGCCGGCUGGACUGUGCCUGCUUUAGAGUAGACAGAGAGGGACGUGGGCAUGUUUUAUUUGGAGGGAUGUUUAUUCCCUGAGAUUACAGAAGUAC`, “RBNS enrichment (R)” read 2.43.

Sample 3
Target: Sal-like protein 4, full length isoform B (SALL4, Homo sapiens, UniProt Q9UJQ4-2, residues 1-616)
Method: universal PBM
Molecule type: double-stranded DNA, one strand shown
Sample: in vitro
Concentration: not given
Setting: 8-mer, flanks averaged, mean of replicates
Direction: higher = stronger binding
With `ACACTCCG` the E-score was -0.164.
`ATAGGCGG` gave an E-score of 0.0467.
`GGGCGAAC` gave an E-score of -0.202.
For `CTGGTGAC`, the E-score was -0.238.
With `GGCCTTAC` the E-score was -0.133.
`CGGGTAGC` has an E-score of -0.229.
`CACTATGG` has an E-score of 0.106.
For `GACCTCTC`, the E-score was -0.0845.
The E-score of `CGGAGGAC` is reported as -0.0894.
The E-score of `GTCCACGA` is reported as -0.216.
With `CGCTAAGC` the E-score was -0.13.
For `GCACAGAA`, the E-score was -0.0405.

Mixed results
`PhoQ, residues 284 288 289 292 302 303 SCCLKL` has a fold induction of 13 (PhoP, residues 12 14 15 18 19 NQFFI (Escherichia coli, UniProt P23836); Sort-seq, refers to: YFP reporter; E. coli; PhoQ-PhoP variant library, together with: 10 µM Mg2+; reference: high Mg2+ state, higher = stronger signaling).
